{"data": "Earlier results that unrelated publications cite", "gag-pol integrase": "Gag-Pol polyprotein, integrase (gag-pol, Human immunodeficiency virus 1, UniProt P12497)", "gag-pol": "Gag-Pol polyprotein (gag-pol, Human immunodeficiency virus 1, UniProt P12497)", "note": "Each line is one published result; not all experiments were run side by side. ± gives the spread as reported.", "UniProt P0A7E5, sequence (whole entry, looked up)": "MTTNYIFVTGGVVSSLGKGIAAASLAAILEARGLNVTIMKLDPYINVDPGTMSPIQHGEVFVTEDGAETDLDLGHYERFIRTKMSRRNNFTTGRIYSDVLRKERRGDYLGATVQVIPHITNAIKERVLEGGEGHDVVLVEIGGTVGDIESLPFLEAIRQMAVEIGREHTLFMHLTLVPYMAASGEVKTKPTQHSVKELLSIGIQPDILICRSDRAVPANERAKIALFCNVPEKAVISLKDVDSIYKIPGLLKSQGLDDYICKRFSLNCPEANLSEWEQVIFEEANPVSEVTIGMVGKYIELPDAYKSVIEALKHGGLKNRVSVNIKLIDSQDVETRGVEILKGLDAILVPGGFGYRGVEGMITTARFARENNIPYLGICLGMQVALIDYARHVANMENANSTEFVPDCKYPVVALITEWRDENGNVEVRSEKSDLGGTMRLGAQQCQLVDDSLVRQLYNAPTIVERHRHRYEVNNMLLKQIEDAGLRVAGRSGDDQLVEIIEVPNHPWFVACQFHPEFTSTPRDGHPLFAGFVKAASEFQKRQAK", "UniProt Q9Y6L6, sequence (whole entry, looked up)": "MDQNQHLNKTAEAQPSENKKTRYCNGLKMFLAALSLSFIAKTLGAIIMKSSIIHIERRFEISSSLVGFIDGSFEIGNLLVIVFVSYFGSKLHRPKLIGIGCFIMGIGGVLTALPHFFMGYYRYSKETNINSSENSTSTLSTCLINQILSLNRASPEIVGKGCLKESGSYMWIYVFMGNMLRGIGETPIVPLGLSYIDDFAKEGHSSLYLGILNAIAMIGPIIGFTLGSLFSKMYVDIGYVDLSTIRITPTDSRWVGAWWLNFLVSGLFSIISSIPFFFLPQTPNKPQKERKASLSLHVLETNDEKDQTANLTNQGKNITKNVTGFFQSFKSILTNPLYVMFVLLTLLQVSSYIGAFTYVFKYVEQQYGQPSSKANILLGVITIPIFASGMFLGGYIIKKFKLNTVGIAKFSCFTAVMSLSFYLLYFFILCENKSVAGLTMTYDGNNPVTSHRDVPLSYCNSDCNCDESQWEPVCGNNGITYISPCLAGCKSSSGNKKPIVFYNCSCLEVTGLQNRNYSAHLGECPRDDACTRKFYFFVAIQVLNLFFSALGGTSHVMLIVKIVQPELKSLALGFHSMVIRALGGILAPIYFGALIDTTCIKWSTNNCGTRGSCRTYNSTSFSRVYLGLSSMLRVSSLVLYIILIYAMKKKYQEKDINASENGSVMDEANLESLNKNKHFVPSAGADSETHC", "UniProt P22303, sequence (whole entry, looked up)": "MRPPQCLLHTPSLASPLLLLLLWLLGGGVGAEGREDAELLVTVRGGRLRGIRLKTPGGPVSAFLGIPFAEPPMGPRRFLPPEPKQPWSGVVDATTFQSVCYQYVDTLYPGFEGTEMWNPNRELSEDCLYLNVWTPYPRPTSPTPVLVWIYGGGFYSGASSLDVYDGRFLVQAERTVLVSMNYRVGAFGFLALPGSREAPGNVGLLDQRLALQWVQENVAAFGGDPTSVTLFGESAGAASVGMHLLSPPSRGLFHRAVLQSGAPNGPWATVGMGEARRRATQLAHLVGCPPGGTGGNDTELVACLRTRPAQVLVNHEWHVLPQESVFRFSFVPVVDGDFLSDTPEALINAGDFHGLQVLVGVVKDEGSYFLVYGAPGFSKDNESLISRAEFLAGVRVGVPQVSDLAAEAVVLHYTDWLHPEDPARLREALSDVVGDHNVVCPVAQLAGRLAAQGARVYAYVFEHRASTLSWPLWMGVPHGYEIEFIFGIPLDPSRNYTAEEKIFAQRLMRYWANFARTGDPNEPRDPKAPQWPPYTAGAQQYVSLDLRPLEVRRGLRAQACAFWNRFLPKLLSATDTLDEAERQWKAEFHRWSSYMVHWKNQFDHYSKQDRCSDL", "UniProt Q05941, sequence (whole entry, looked up)": "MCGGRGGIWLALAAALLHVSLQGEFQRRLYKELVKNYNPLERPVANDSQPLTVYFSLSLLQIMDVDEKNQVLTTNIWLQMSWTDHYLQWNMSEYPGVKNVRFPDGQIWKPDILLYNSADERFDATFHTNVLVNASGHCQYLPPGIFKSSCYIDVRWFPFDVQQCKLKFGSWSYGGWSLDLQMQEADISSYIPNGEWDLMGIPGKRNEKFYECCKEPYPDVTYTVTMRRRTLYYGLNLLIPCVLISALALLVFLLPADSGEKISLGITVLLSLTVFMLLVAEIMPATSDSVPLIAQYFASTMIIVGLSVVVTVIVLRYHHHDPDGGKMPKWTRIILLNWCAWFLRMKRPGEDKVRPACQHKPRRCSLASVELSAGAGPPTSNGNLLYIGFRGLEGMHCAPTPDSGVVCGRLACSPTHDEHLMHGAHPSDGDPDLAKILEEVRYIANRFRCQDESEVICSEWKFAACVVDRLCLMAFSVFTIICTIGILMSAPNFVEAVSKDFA", "UniProt O15245, sequence (whole entry, looked up)": "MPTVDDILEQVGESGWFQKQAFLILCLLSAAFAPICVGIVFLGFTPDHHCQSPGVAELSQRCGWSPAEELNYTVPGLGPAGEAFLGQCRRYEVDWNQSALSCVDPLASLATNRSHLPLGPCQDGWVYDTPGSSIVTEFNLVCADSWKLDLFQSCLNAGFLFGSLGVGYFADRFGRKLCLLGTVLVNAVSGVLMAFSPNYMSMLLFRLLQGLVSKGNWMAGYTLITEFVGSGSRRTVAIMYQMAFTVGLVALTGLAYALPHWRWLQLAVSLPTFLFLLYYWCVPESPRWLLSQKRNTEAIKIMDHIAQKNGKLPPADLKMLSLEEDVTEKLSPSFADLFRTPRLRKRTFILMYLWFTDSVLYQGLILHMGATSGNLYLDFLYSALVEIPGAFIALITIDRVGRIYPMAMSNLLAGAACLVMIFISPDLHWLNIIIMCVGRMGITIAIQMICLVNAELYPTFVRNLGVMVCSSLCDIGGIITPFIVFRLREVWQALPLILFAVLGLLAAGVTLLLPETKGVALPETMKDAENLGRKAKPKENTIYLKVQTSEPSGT", "UniProt P25103, sequence (whole entry, looked up)": "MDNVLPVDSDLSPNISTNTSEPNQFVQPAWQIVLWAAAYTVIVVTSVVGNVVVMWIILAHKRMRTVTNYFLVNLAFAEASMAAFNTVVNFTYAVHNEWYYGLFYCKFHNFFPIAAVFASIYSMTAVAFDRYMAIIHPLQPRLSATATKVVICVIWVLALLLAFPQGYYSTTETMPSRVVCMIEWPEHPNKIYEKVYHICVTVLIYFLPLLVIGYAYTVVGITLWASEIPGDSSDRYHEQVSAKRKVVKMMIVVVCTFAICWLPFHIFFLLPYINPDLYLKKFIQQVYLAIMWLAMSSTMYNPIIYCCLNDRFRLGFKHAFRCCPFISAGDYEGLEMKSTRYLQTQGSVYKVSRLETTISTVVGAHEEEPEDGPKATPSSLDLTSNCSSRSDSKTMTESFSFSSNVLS"}
{"Structure (SMILES)": "Ic1ccccc1CN[C@@H]1C2CCN(CC2)[C@@H]1C(c1ccccc1)c1ccccc1 (racemic)", "target": "TACR1 (Homo sapiens, UniProt P25103)", "IC50 [nM]": 3.6}
{"Structure (SMILES)": "CN(C)C(=O)C(=O)N(C)c1nc(C(=O)NCc2ccc(F)cc2)c(O)c2ncccc12", "target": "gag-pol integrase", "assay": "concerted integration (half-site)", "system": "HIV-1", "IC50 [nM]": 700}
{"Structure (SMILES)": "C[C@H](CC[C@H](O)[C@](C)(O)CO)[C@H]1CC[C@@]2(C)C3=CC[C@H]4C(C)(C)C(=O)CC[C@]4(C)C3=CC[C@]12C", "target": "dengue virus helicase", "assay": "enzyme activity, inhibitor, FRET", "IC50 [nM]": 500}
{"Structure (SMILES)": "CCN1C[C@H](C)n2c(c(O)c3c(=O)n(Cc4ccc(F)c(Cl)c4)nc(C(=O)NC)c32)C1=O", "target": "gag-pol", "assay": "concerted integration (full-site)", "system": "HIV-1", "IC50 [nM]": 42}
{"Structure (SMILES)": "CCC1=C[C@@H]2Cc3nc4cc(Cl)ccc4c(N)c3[C@H](C1)C2", "target": "ACHE (Homo sapiens, UniProt P22303)", "IC50 [nM]": 1.3}
{"Structure (SMILES)": "O=C(O)C(=O)C=C(O)c1cn(Cc2ccc(F)cc2)c2cc(N3CCCC3)ccc2c1=O", "target": "gag-pol integrase", "assay": "concerted integration (half-site)", "system": "HIV-1", "IC50 [nM]": 1750}
{"Structure (SMILES)": "O=C(O)/C(=C/c1c(C(=O)O)[nH]c2cc(Cl)cc(Cl)c12)c1ccccc1", "target": "Grin1 (Rattus norvegicus, UniProt P35439)", "assay": "inhibitor", "setting": "historical measurement", "IC50 [nM]": 22}
{"Structure (SMILES)": "Nc1ccn([C@@H]2O[C@H](COP(=O)(O)OP(=O)(O)OP(=O)(O)O)[C@@H](O)[C@H]2O)c(=O)n1", "target": "pyrG (Escherichia coli, UniProt P0A7E5)", "assay": "enzyme activity, inhibitor", "setting": "wild type, together with: UTP 0.05 mM", "IC50 [nM]": 97000}
{"Structure (SMILES)": "CN1CCc2[nH]c3ccccc3c2CC1", "target": "Chrna7 (Rattus norvegicus, UniProt Q05941)", "assay": "inhibitor", "setting": "together with: 100 µM acetylcholine", "IC50 [nM]": "6400 ± 500"}
{"Structure (SMILES)": "O=C(O)C1=CCCN(CCON=C(c2ccccc2)c2ccccc2)C1", "target": "Slc6a1 (Rattus norvegicus, UniProt P23978)", "assay": "inhibitor", "setting": "historical measurement", "IC50 [nM]": 200}
{"Structure (SMILES)": "COc1cc2nc(N3CCN(C(=O)c4ccco4)CC3)nc(N)c2cc1OC", "target": "SLC22A1 (Homo sapiens, UniProt O15245)", "assay": "transport activity, inhibitor", "setting": "together with: YM155", "IC50 [nM]": 1560}
{"Structure (SMILES)": "O=C(NCc1ccc(F)cc1)c1nc(N2CCCCS2(=O)=O)c2cccnc2c1O", "target": "gag-pol", "assay": "concerted integration (full-site)", "system": "HIV-1", "IC50 [nM]": 55}
{"Structure (SMILES)": "CCCc1nn(C)c2c(=O)[nH]c(-c3cc(S(=O)(=O)N4CCN(C)CC4)ccc3OCC)nc12", "target": "SLCO1B1 (Homo sapiens, UniProt Q9Y6L6)", "assay": "transport, inhibitor", "setting": "OATP1B1, literature value, together with: Bosentan substrate", "IC50 [nM]": 1500}
{"Structure (SMILES)": "O=C(O)C1=CC(=C(c2ccc(O)c(C(=O)O)c2)c2ccc(O)c(C(=O)O)c2)C=CC1=O", "target": "HCV NS3 helicase", "assay": "helicase activity, inhibitor", "IC50 [nM]": 300}
